{"data": "Assay results gathered from unrelated publications", "note": "Each numbered part is a random draw from the data of one study; scales do not carry over between parts. “And” joins repeats or separate records; there may be more than shown.", "UniProt Q9UM73, sequence (whole entry, unmodified, looked up)": "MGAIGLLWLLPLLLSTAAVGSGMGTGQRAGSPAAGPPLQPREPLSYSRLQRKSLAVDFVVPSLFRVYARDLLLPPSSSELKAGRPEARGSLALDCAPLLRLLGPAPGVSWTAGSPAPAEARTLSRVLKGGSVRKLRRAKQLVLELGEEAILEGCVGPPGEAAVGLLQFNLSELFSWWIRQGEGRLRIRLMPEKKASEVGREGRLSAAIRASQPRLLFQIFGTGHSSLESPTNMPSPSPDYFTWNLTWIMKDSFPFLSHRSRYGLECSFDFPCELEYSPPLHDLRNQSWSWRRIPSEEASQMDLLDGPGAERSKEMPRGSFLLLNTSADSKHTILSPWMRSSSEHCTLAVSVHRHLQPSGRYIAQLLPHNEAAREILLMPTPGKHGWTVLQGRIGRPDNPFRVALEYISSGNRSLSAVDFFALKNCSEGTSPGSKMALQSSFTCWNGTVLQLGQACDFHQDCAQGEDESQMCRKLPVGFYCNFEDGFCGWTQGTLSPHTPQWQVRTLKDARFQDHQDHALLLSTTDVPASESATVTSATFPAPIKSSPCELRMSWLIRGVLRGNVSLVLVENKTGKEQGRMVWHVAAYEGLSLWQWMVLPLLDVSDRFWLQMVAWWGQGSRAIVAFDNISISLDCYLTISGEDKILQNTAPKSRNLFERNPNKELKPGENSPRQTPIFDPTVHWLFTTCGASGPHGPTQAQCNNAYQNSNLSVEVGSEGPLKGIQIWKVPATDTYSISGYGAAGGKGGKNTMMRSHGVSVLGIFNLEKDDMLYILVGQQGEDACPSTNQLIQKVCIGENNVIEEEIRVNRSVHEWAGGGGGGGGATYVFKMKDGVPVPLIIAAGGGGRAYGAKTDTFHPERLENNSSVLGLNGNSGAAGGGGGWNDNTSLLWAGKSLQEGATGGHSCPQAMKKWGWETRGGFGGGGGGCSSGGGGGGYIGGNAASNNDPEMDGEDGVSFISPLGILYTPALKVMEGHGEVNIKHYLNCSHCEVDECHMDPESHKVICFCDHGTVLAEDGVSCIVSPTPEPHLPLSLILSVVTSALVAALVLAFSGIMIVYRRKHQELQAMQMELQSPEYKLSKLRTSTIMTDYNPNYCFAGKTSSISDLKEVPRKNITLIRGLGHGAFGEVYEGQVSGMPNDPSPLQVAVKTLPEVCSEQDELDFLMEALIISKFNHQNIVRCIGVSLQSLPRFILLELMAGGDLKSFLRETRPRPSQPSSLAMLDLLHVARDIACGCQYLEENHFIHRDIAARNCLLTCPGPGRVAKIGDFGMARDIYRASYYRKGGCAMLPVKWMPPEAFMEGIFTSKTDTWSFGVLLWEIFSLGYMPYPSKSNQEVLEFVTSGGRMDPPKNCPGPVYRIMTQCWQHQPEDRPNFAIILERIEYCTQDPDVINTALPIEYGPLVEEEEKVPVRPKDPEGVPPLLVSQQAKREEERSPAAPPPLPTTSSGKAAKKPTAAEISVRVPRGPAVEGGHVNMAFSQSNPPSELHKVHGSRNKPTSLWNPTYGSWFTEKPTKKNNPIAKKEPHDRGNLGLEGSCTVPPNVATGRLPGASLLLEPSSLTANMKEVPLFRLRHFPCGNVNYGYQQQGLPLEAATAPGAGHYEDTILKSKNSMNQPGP", "UniProt Q8NEV4, sequence (whole entry, looked up)": "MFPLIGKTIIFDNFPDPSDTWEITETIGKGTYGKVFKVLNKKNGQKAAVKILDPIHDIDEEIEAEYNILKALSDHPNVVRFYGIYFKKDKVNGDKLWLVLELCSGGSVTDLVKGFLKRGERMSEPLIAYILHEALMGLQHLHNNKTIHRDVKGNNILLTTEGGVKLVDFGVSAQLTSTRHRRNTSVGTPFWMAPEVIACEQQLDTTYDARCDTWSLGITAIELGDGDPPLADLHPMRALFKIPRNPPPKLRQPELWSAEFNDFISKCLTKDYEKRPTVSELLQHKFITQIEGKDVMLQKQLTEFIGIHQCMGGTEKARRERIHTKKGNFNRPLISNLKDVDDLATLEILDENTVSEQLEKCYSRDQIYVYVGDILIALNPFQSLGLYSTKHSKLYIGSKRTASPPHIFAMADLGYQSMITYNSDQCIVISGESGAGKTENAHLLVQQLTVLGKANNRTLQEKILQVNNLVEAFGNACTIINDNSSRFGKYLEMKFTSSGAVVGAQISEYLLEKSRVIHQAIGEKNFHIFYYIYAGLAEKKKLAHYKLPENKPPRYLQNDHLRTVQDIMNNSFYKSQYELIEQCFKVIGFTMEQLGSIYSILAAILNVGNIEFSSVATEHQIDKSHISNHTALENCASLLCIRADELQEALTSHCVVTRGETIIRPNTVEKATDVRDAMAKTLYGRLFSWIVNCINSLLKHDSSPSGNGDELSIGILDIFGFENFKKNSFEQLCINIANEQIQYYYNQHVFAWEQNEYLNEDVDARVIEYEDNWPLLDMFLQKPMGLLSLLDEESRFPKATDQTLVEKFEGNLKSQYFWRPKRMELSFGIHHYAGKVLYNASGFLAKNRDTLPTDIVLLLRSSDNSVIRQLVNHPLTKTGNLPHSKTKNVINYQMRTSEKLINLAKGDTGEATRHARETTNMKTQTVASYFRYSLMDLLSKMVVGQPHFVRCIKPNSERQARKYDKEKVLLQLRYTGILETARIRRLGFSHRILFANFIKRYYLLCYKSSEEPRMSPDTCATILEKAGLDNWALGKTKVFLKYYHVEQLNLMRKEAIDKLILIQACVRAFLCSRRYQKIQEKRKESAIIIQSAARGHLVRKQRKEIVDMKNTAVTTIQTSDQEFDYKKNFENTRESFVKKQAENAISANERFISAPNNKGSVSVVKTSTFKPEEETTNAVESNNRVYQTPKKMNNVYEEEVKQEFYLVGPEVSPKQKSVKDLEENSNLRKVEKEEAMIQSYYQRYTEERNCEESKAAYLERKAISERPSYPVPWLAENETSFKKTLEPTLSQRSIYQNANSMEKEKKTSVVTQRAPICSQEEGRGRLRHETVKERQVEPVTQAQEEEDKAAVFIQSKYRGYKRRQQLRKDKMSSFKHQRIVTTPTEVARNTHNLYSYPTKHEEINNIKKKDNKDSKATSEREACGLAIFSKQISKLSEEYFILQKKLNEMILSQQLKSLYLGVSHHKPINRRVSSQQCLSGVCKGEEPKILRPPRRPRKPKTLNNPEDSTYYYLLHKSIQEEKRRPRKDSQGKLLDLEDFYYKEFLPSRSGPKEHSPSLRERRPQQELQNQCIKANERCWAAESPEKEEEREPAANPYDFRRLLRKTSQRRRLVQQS", "UniProt Q16832, sequence (whole entry, looked up)": "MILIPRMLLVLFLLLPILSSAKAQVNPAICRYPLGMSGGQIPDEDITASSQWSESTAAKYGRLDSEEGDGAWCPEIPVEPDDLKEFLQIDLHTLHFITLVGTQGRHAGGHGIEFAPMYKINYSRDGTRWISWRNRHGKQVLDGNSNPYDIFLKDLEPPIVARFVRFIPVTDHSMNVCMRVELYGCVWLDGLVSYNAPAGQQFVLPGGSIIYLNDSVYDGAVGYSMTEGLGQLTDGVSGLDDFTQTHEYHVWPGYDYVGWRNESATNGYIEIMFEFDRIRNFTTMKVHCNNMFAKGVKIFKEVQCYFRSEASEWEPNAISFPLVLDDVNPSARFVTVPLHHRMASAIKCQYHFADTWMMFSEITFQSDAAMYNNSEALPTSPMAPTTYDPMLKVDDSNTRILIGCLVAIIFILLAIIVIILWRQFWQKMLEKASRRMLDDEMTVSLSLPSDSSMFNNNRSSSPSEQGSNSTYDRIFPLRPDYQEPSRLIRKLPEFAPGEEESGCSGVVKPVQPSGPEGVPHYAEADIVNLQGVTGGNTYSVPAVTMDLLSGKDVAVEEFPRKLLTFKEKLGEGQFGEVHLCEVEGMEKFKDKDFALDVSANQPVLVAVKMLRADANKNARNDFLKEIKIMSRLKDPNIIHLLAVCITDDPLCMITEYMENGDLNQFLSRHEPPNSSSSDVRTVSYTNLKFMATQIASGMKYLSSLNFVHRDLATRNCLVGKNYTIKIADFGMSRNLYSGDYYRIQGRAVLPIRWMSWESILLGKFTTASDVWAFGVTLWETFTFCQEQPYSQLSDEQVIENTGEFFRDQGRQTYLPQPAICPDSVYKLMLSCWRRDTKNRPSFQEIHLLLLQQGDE"}
{"data": "Sample 1", "species": "human", "medium": "microsomes or S9", "concentration": "2 µM", "time": "0.5 h"}
{"SMILES": "O=C(Nc1nc2ccc(F)cn2n1)NC1C2CCOC2C12CCC2 (centres unmarked)", "remaining compound [%]": 61.7}
{"SMILES": "Cc1cccc(-n2nc(-c3cnn(C)c3C)c(Cl)c2-c2cnn(C)c2C)c1", "remaining compound [%]": 1.14}
{"SMILES": "Fc1ccc(-n2cc(C3CCCCN3)nn2)cc1Cl (centres unmarked)", "remaining compound [%]": 84.5}
{"SMILES": "CC(C)n1cc(NC(=O)C2(C)Oc3ccccc3NC2=O)cn1 (centres unmarked)", "remaining compound [%]": 86}
{"data": "Sample 2", "target": "Beta-1 adrenergic receptor (ADRB1, Homo sapiens, UniProt P08588)", "action": "antagonist", "UniProt P08588, sequence (whole entry, looked up)": "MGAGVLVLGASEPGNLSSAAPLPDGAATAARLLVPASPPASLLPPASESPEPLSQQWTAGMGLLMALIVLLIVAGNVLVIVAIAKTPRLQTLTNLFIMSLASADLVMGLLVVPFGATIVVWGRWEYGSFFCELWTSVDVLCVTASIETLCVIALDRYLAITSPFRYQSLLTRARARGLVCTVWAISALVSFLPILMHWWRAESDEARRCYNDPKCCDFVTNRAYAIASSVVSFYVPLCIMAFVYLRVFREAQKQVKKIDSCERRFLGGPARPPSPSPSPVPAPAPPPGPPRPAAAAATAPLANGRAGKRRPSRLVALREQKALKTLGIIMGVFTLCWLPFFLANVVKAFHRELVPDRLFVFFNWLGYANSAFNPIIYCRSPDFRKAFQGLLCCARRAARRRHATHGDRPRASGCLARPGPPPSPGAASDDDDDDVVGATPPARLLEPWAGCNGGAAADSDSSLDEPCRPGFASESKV"}
{"SMILES": "CN(C)c1ccc(C(=C2C=CC(=[N+](C)C)C=C2)c2c(O)c(S(=O)(=O)[O-])cc3cc(S(=O)(=O)O)ccc23)cc1", "IC50": "≥ 100 µM"}
{"SMILES": "COc1ccccc1N1CCN(CC(O)COc2cccc3ccccc23)CC1 (centres unmarked)", "IC50": "≥ 100 µM"}
{"SMILES": "c1cc(-c2cc3c(ccn3Cc3ccncc3)c(N3CCOCC3)n2)c2[nH]ncc2c1", "IC50": "≥ 100 µM"}
{"SMILES": "CCN1CCN(Cc2ccc(Nc3ncc(F)c(-c4cc(F)c5nc(C)n(C(C)C)c5c4)n3)nc2)CC1", "IC50": "≥ 100 µM"}
{"SMILES": "O=C(Nc1cccc(C(F)(F)F)c1)N[C@H]1CO[C@H]2[C@@H]1OC[C@@H]2Nc1nccc(C2CCCC2)n1", "IC50": "11.2 µM"}
{"data": "Sample 3", "Compound": "N#Cc1ccc(Nc2ccc3[nH]c(=O)[nH]c3c2)c(Cl)c1", "method": "competition with immobilised ligand", "concentration": "1 µM"}
{"target": "DSTYK (Homo sapiens, UniProt Q6XUX3)", "effect on": "cell-free assay", "remaining binding": "75%"}
{"target": "EGFR (Homo sapiens, UniProt P00533, L858R/T790M)", "effect on": "cell-free assay", "remaining binding": "79%"}
{"target": "CLK2 (Homo sapiens, UniProt P49760)", "effect on": "cell-free assay", "remaining binding": "100%"}
{"target": "Myosin-IIIb (MYO3B, Homo sapiens, UniProt Q8WXR4)", "effect on": "binding", "remaining binding": "100%"}
{"target": "Aurora kinase A (AURKA, Homo sapiens, UniProt O14965)", "effect on": "cell-free assay", "remaining binding": "87%"}
{"target": "CAMK2D (Homo sapiens, UniProt Q13557)", "effect on": "cell-free assay", "remaining binding": "100%"}
{"target": "ACVR2A (Homo sapiens, UniProt P27037)", "effect on": "cell-free assay", "remaining binding": "70%"}
{"target": "STK39 (Homo sapiens, UniProt Q9UEW8)", "effect on": "cell-free assay", "remaining binding": "100%"}
{"target": "INSRR (Homo sapiens, UniProt P14616)", "effect on": "cell-free assay", "remaining binding": "100%"}
{"target": "DDR2 (Homo sapiens, UniProt Q16832)", "effect on": "cell-free assay", "remaining binding": "100%"}
{"target": "CAMK4 (Homo sapiens, UniProt Q16566)", "effect on": "cell-free assay", "remaining binding": "100%"}
{"target": "ACVR2B (Homo sapiens, UniProt Q13705)", "effect on": "binding", "remaining binding": "81%"}
{"target": "DAPK3 (Homo sapiens, UniProt O43293)", "effect on": "cell-free assay", "remaining binding": "92%"}
{"target": "FLT3 (Homo sapiens, UniProt P36888)", "effect on": "cell-free assay", "remaining binding": "100%"}
{"target": "Tyrosine-protein kinase ABL1, phosphorylated (ABL1, Homo sapiens, UniProt P00519)", "effect on": "cell-free assay", "remaining binding": "100%"}
{"target": "FER (Homo sapiens, UniProt P16591)", "effect on": "cell-free assay", "remaining binding": "100%"}
{"target": "Myosin-IIIa (MYO3A, Homo sapiens, UniProt Q8NEV4)", "effect on": "binding", "remaining binding": "97%"}
{"target": "IKBKE (Homo sapiens, UniProt Q14164)", "effect on": "cell-free assay", "remaining binding": "100%"}
{"target": "EPHB2 (Homo sapiens, UniProt P29323)", "effect on": "cell-free assay", "remaining binding": "70%"}
{"target": "FLT3 (Homo sapiens, UniProt P36888, K663Q)", "effect on": "cell-free assay", "remaining binding": "92%"}
{"target": "ALK (Homo sapiens, UniProt Q9UM73, C1156Y)", "effect on": "cell-free assay", "remaining binding": "100%"}
{"target": "CAMK2B (Homo sapiens, UniProt Q13554)", "effect on": "cell-free assay", "remaining binding": "91%"}
{"target": "PIP4K2B (Homo sapiens, UniProt P78356)", "effect on": "cell-free assay", "remaining binding": "74%"}
{"target": "KIT (Homo sapiens, UniProt P10721, D816H)", "effect on": "cell-free assay", "remaining binding": "99%"}
{"target": "Aurora kinase B (AURKB, Homo sapiens, UniProt Q96GD4)", "effect on": "cell-free assay", "remaining binding": "85%"}
{"data": "Sample 4", "organism": "Sarcocystis neurona", "effect on": "parasite growth", "concentration": "concentration not given", "notes": "second screen", "relative to": "untreated"}
{"Compound": "Cl.Cn1c(NCCN(CCO)CCCc2ccc([N+](=O)[O-])cc2)cc(=O)n(C)c1=O", "log2 fold change": 0.41}
{"Compound": "COc1ccccc1N1CCN(CCCNc2cc(=O)n(C)c(=O)n2C)CC1.Cl", "log2 fold change": 0.39}
{"Compound": "CC(Cc1ccccc1)(NC(=O)CN)c1ccccc1.Cl (centres unmarked)", "log2 fold change": -0.0085}
{"Compound": "Nc1nc(=O)[nH]cc1F", "log2 fold change": 0.0219}
{"Compound": "Cl.c1ccc2c(c1)CCCC2C1=NCCN1 (centres unmarked)", "log2 fold change": 0.31}
{"data": "Sample 5", "cell line": "mouse MPNST tumor cells", "method": "high-content immunofluorescence imaging", "item": "nuclear SOX9", "concentration": "10 µM", "time": "12 h", "notes": "mean of 2 replicates", "relative to": "DMSO control", "reading": "higher = more nuclear SOX9"}
{"Compound": "O=C(Nc1nc2ccc(NC(=O)C34CC5CC(CC(C5)C3)C4)cc2s1)c1ccccc1", "nuclear SOX9 intensity": "173 % of DMSO"}
{"Compound": "CCn1c(=O)c(-c2ccc(-c3cncs3)cc2Cl)cc2cnc(Nc3ccc(N4CCN(C)CC4)cc3)nc21", "nuclear SOX9 intensity": "91.1 % of DMSO"}
{"Compound": "Cc1cc(C)c(/C=C2\\C(=O)Nc3ccccc32)[nH]1", "nuclear SOX9 intensity": "137 % of DMSO"}
{"Compound": "NCCCCCC(=O)O", "nuclear SOX9 intensity": "96 % of DMSO"}
{"Compound": "CC1(C)CN2C(CSC(=NC3CCCCC3)NC3CCCCC3)=CSC2=N1", "nuclear SOX9 intensity": "147 % of DMSO"}
{"data": "Single results of other studies", "CAMK2A": "Calcium/calmodulin-dependent protein kinase type II subunit alpha (CAMK2A, Homo sapiens, UniProt Q9UQM7)", "UniProt Q9UQM7, sequence (whole entry, looked up)": "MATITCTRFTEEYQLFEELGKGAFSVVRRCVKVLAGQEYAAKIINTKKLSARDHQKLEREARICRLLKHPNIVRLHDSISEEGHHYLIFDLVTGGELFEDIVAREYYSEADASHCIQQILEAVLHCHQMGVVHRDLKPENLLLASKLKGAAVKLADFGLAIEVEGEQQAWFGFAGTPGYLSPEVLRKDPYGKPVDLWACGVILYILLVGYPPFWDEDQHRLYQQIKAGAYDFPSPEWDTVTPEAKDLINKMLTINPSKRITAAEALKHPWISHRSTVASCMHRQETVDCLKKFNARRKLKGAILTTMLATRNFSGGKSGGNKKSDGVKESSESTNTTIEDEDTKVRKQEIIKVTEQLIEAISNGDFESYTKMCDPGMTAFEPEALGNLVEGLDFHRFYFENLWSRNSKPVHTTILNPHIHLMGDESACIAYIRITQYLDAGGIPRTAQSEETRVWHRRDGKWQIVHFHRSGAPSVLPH"}
{"Structure (SMILES)": "COc1ccc(-c2c(Nc3ccccn3)[nH]c3c(C4=CCCCC4)c(-c4ccccc4)nn3c2=O)cc1", "system": "human, plasma", "conditions": "oral, 50 mg once daily, cycle 1", "how to read": "relative to: trough concentration", "measurement": "swing over dosing interval", "result": "0.504 and 0.496 and 0.495"}
{"Structure (SMILES)": "CC(C)n1cnc(-c2ccc(F)cc2)c1-c1ncc(C(=O)Nc2ccc(N3CCN(C)CC3)cc2)[nH]1", "system": "human, idiopathic pulmonary fibrosis", "conditions": "30 mg once daily, trial, treatment-emergent", "measurement": "patients with interstitial lung disease", "result": "0%"}
{"Structure (SMILES)": "CCC(CC)C(=O)O", "target or system": "CAMK2A", "test": "enzyme activity, inhibitor", "conditions": "10 µM", "measurement": "inhibition", "result": "-19%"}
{"Structure (SMILES)": "CCCN1C(=O)[C@H](CC(C)C)NC(=O)[C@@H](N(C)C(=O)[C@H](CC2CCC2)NC(=O)[C@@H]2C[C@@H](F)CN2C(=O)[C@@](C)(O)C(F)(F)F)CCCCNC(=O)C2(CC2)NC(=O)[C@@H]1Cc1cc(Cl)ccc1Cl", "system": "mouse NCI-H1048 xenograft", "conditions": "iv, 100 mg/kg once daily, day 4", "measurement": "tumour volume", "result": "290 mm3 and 280 mm3 and 339 mm3 and 208 mm3 and 184 mm3 and 358 mm3 and 364 mm3 and 318 mm3"}
{"Structure (SMILES)": "N#Cc1c(Oc2ccc(F)c(NC(=O)Cc3cccc(C(F)(F)F)c3)c2)ccc2nc(NC(=O)C3CC3)sc12", "target or system": "RIPK3 (Homo sapiens, UniProt Q9Y572)", "test": "kinase activity, inhibitor, ADP-Glo", "conditions": "125 nM, 1 h", "measurement": "inhibition", "result": "86.2%"}
{"Structure (SMILES)": "C=CCNc1nc(NCC=C)nc(N2CCN(C(c3ccc(F)cc3)c3ccc(F)cc3)CC2)n1", "target or system": "CAMK2A", "test": "enzyme activity, inhibitor", "conditions": "10 µM", "measurement": "inhibition", "result": "-11%"}
{"note": "For quick reference, copied from above (sample 3):"}
{"target": "DSTYK (Homo sapiens, UniProt Q6XUX3)", "effect on": "cell-free assay", "remaining binding": "75%"}
{"target": "Aurora kinase A (AURKA, Homo sapiens, UniProt O14965)", "effect on": "cell-free assay", "remaining binding": "87%"}
{"target": "ACVR2A (Homo sapiens, UniProt P27037)", "effect on": "cell-free assay", "remaining binding": "70%"}
{"target": "DAPK3 (Homo sapiens, UniProt O43293)", "effect on": "cell-free assay", "remaining binding": "92%"}
{"target": "Myosin-IIIb (MYO3B, Homo sapiens, UniProt Q8WXR4)", "effect on": "binding", "remaining binding": "100%"}
{"target": "Tyrosine-protein kinase ABL1, phosphorylated (ABL1, Homo sapiens, UniProt P00519)", "effect on": "cell-free assay", "remaining binding": "100%"}
{"target": "FER (Homo sapiens, UniProt P16591)", "effect on": "cell-free assay", "remaining binding": "100%"}
